Published values pooled from the literature.
Numbered parts are unrelated; each lists some results of a single study.
Chain of UniProt P78368 (whole entry, looked up): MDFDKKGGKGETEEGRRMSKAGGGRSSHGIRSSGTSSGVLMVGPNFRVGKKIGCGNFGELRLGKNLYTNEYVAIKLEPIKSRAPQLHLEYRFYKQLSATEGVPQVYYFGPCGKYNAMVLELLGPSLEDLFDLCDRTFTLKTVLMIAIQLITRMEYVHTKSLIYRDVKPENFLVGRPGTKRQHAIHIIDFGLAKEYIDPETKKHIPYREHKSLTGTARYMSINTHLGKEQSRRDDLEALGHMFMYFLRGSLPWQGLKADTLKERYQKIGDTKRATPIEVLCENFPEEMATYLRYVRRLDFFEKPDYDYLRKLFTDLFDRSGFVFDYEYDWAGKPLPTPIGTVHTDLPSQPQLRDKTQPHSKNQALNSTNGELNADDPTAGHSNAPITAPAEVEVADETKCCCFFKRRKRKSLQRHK
Chain of UniProt Q8WTQ7 (whole entry, looked up): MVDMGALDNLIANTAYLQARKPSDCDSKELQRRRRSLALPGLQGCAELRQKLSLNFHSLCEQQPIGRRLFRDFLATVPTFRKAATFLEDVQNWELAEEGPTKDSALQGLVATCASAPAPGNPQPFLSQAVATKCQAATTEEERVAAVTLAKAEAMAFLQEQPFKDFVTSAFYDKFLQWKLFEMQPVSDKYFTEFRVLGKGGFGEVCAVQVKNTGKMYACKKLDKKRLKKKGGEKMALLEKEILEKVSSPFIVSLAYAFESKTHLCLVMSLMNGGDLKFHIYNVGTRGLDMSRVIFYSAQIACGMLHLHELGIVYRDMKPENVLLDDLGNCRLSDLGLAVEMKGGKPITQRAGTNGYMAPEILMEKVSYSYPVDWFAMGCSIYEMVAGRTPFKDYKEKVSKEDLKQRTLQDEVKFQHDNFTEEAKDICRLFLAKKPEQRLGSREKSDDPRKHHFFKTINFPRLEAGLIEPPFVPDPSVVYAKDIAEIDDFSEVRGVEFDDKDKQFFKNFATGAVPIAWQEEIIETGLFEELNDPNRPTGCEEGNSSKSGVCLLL
Chain of UniProt P11362 (whole entry, looked up): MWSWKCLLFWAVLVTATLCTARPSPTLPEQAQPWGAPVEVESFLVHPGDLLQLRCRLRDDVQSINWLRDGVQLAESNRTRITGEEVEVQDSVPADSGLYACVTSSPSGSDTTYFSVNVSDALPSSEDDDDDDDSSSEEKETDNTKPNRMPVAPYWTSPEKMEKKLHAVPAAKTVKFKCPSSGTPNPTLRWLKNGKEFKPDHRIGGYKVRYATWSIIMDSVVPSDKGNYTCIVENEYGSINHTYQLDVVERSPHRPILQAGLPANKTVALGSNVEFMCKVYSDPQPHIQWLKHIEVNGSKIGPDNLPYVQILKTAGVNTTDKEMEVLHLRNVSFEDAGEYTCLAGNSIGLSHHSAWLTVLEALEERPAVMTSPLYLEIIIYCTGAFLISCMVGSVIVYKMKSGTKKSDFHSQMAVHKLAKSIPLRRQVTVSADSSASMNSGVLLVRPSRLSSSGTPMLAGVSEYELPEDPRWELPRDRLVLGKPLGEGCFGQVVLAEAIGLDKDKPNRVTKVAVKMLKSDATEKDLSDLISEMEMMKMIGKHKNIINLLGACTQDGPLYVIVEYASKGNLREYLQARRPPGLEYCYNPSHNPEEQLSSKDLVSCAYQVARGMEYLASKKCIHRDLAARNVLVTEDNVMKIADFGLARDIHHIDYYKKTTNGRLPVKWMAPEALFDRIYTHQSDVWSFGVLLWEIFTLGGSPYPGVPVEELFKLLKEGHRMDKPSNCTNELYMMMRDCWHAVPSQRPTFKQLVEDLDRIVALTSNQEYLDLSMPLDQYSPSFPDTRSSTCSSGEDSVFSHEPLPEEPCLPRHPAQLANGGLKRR
Chain of UniProt Q02763 (whole entry, looked up): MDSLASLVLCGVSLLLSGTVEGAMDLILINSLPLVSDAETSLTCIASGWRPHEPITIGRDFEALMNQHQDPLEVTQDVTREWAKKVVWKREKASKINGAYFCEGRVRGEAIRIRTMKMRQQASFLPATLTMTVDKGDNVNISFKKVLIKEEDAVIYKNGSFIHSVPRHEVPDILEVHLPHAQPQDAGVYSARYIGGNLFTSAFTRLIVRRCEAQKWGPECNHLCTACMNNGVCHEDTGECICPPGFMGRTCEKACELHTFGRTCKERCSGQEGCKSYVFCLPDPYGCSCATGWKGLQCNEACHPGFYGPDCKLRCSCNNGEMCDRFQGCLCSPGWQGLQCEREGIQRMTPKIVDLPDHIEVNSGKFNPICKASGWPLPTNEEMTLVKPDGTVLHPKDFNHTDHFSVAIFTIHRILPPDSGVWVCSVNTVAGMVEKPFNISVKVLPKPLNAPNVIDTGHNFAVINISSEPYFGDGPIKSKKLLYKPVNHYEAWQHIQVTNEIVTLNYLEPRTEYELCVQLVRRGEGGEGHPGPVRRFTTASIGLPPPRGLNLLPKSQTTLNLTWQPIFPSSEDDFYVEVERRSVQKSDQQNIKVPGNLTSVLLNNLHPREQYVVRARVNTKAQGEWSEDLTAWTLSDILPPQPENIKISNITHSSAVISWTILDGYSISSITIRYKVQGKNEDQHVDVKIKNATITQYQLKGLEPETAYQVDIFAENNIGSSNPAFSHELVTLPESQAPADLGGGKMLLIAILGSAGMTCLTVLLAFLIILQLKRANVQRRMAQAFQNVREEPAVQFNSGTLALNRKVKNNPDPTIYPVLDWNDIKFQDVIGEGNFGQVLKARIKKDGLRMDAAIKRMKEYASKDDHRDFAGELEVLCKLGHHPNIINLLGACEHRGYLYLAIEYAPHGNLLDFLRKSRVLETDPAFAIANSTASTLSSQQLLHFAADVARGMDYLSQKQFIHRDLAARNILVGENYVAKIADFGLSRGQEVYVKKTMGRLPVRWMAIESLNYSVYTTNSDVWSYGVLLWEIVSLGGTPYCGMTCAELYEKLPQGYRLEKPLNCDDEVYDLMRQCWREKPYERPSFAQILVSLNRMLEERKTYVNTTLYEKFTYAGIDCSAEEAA
Chain of UniProt P06239 (whole entry, looked up): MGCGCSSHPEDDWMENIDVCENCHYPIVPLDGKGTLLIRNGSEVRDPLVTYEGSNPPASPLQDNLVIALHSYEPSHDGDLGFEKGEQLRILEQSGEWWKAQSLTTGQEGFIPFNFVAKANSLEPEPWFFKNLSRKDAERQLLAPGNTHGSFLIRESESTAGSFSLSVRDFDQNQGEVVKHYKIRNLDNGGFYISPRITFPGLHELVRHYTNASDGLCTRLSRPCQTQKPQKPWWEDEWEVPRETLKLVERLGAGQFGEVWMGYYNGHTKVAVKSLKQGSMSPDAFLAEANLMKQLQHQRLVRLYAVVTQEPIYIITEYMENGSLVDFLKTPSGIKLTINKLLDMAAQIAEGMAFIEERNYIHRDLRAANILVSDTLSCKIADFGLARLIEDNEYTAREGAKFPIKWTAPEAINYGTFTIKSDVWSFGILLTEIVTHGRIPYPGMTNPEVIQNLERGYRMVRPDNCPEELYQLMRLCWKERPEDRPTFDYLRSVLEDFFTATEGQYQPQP
Chain of UniProt P22607 (whole entry, looked up): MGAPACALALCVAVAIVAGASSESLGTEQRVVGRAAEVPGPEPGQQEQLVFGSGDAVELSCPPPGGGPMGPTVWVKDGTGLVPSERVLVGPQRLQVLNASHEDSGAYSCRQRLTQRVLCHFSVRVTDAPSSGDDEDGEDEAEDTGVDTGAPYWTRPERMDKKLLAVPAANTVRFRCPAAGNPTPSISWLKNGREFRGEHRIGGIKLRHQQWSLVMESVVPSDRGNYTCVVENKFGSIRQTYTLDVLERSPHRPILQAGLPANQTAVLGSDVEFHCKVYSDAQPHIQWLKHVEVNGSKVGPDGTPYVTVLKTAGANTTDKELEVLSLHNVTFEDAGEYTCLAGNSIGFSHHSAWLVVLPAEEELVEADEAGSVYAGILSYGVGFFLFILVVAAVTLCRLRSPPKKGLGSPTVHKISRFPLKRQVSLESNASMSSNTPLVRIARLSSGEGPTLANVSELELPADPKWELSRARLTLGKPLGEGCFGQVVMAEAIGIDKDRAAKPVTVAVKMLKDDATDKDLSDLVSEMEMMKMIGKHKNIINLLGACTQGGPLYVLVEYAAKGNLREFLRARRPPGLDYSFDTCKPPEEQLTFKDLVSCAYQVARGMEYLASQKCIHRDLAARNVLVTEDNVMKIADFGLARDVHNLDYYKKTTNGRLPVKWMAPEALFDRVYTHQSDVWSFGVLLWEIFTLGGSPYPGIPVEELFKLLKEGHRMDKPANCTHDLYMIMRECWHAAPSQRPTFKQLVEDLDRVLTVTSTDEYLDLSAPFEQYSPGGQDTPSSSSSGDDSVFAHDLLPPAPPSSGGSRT
Chain of UniProt P49137 (whole entry, looked up): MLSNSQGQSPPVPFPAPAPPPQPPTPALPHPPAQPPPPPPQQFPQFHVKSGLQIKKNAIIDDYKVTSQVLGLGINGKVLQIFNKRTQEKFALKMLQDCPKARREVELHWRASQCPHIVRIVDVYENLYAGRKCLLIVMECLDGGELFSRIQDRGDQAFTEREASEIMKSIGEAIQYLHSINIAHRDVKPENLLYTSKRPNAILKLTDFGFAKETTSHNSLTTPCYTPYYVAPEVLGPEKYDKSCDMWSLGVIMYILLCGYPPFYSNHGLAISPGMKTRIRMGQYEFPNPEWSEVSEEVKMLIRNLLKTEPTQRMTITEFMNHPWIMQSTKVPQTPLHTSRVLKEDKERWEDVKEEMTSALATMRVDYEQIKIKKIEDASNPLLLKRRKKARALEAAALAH
Chain of UniProt P08908 (whole entry, looked up): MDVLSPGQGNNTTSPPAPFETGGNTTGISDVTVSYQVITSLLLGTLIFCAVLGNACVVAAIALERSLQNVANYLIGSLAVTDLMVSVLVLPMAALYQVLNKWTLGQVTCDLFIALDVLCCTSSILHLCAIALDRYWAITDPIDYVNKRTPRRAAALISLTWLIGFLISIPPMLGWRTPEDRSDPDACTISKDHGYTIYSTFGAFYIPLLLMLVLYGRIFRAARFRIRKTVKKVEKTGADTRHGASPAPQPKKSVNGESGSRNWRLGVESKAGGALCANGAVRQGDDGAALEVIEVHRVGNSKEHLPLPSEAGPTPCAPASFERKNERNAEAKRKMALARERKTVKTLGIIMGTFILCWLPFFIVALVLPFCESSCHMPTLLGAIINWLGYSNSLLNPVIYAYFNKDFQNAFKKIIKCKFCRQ

Sample 1
Structure (SMILES): CCn1cnc2c(Nc3cccc(Cl)c3)nc(N[C@H]3CCCC[C@H]3N)nc21
Read-out: enzyme activity
Action: inhibitor
Concentration: 0.5 µM
Relative to: control
FGFR1 (Homo sapiens, UniProt P11362) — remaining activity: 85.7%.
The remaining activity was 69.5% (CSNK1G2 (Homo sapiens, UniProt P78368)).
For FGFR3 (Homo sapiens, UniProt P22607): remaining activity read 90.4%.
The remaining activity was 99.9% (TEK (Homo sapiens, UniProt Q02763)).
It gave 89.5% for remaining activity (LCK (Homo sapiens, UniProt P06239)).
It gave 97.9% for remaining activity (GRK7 (Homo sapiens, UniProt Q8WTQ7)).
MAPKAPK2 (Homo sapiens, UniProt P49137) — remaining activity: 94.9%.

Sample 2
Target: vesicular stomatitis virus glycoprotein
Read-out: viral entry
Technique: VSVΔG-G pseudovirus
Concentration: 10 µM
With `c1csc(-c2csc3nc(CN4CCOCC4)nc(Sc4nnc(C5CC5)o4)c23)c1` the inhibition was 16%.
For `N#CC(C#N)=C/C=C(/Sc1ncc(C(F)(F)F)cc1Cl)c1ccc(Cl)cc1`, the inhibition was 35%.
For `Fc1ccccc1CN1CCCC(NCc2cccn2-c2nccs2)C1` (centres unmarked), the inhibition was -2%.
`COc1ccc(N2CCN(C(=O)c3nc(S(C)(=O)=O)ncc3Cl)CC2)cc1` gave an inhibition of 33%.
The inhibition of `Cc1ccc(-c2cc(O)c3c(c2)CN(C(=O)Nc2ccccc2)CCO3)s1` is reported as -35%.
`CCOC(=O)c1cc(C#N)c(Sc2nnc(SC)s2)nc1C(F)(F)F` gave an inhibition of 29%.
For `CCc1c2c(nc3ccc(O)cc13)-c1cc3c(c(=O)n1C2)COC(=O)[C@]3(O)CC`, the inhibition was -1.5%.
`Cc1nc2cc(-c3cccc4ccnn34)ccc2s1` gave an inhibition of 0.7%.

Mixed results
`Cc1ncsc1-c1ccc(CNC(=O)[C@@H]2C[C@@H](O)CN2C(=O)[C@@H](NC(=O)CCCCCNC(=O)Cc2ccccc2)C(C)(C)C)cc1` gave a logD (1,9-decadiene/water) of -2.96 (exponential regression of PRP log k'; pH 7.0).
`Cc1c(N2CCCC2)nc2ccc(Br)cc2c1C(=O)NC[C@H](CCC(=O)O)c1ccccc1Cl` gave an inhibition of 5.62% (HTR1A (Homo sapiens, UniProt P08908); cell-free assay; 10 µM).

Some of these lines once more (sample 2):
`COc1ccc(N2CCN(C(=O)c3nc(S(C)(=O)=O)ncc3Cl)CC2)cc1` gave an inhibition of 33%.
The inhibition of `Cc1ccc(-c2cc(O)c3c(c2)CN(C(=O)Nc2ccccc2)CCO3)s1` is reported as -35%.
